# Published values of several laboratories.
# Numbered parts are unrelated; each lists some results of a single study.
# Chain of UniProt P29322 (whole entry, looked up): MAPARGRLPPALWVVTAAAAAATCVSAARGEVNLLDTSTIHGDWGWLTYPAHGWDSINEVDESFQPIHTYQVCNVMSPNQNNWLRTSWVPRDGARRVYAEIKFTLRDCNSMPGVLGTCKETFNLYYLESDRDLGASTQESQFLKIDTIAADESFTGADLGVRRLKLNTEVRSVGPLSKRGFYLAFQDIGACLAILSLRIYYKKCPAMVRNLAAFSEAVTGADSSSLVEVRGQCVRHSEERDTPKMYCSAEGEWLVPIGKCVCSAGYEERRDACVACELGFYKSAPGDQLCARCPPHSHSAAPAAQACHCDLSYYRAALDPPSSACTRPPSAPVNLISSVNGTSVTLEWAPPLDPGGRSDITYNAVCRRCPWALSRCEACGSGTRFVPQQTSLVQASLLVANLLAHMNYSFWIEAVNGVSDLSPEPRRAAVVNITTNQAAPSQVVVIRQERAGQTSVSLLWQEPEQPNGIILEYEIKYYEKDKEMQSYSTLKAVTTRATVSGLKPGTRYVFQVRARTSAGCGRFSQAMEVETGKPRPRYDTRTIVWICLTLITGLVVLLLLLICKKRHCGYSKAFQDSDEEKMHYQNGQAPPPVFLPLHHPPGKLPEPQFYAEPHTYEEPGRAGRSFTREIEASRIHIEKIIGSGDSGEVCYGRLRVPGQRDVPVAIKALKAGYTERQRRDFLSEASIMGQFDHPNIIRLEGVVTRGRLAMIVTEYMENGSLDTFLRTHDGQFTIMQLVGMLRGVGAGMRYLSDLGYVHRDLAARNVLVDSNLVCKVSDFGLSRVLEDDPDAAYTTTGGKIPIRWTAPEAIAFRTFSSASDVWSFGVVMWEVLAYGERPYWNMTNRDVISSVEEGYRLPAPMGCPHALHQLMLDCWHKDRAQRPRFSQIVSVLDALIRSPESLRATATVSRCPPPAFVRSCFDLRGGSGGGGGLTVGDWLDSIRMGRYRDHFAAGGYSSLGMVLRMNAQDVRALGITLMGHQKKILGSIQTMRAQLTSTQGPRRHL
# Chain of UniProt Q86YV6 (whole entry, looked up): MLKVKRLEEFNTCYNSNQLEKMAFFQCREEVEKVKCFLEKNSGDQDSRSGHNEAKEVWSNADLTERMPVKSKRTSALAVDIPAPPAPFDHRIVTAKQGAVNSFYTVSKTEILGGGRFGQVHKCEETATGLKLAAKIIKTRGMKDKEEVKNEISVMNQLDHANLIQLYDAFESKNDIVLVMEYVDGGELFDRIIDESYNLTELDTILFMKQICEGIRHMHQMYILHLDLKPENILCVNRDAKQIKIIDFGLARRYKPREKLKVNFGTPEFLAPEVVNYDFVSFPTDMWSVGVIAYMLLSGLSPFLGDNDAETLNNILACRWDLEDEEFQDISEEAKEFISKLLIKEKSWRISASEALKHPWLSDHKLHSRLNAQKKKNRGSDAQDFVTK
# Chain of UniProt Q14680 (whole entry, looked up): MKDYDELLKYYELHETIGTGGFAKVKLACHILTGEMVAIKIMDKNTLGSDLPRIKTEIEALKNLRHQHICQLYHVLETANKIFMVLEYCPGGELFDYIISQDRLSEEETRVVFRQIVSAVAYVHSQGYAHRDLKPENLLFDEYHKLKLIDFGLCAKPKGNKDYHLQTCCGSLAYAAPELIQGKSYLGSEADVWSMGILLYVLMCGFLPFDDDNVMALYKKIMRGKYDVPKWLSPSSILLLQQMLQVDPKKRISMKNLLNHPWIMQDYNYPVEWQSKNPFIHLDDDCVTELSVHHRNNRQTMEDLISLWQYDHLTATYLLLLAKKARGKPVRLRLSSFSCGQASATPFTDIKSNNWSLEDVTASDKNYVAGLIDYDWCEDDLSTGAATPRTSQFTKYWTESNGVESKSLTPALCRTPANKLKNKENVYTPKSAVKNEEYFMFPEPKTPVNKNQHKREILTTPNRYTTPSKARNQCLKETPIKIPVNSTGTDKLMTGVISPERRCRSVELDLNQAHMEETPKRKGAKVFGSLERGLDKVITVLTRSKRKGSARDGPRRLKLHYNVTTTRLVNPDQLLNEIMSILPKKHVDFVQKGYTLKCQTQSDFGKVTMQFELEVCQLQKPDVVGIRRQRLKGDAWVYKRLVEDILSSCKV
# Chain of UniProt Q9HBH9 (whole entry, looked up): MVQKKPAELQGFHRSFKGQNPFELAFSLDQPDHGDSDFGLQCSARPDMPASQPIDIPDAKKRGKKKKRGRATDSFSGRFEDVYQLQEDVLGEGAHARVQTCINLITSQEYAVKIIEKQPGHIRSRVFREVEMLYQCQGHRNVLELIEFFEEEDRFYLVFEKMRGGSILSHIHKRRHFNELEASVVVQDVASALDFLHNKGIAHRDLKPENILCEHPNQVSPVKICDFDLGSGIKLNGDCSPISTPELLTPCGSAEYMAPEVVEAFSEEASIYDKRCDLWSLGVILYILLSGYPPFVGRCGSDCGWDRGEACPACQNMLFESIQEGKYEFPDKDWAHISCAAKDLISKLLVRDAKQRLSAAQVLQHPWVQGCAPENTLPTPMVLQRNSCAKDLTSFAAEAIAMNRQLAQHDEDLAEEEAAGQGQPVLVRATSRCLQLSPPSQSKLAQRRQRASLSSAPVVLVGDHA
# Chain of UniProt Q96L34 (whole entry, looked up): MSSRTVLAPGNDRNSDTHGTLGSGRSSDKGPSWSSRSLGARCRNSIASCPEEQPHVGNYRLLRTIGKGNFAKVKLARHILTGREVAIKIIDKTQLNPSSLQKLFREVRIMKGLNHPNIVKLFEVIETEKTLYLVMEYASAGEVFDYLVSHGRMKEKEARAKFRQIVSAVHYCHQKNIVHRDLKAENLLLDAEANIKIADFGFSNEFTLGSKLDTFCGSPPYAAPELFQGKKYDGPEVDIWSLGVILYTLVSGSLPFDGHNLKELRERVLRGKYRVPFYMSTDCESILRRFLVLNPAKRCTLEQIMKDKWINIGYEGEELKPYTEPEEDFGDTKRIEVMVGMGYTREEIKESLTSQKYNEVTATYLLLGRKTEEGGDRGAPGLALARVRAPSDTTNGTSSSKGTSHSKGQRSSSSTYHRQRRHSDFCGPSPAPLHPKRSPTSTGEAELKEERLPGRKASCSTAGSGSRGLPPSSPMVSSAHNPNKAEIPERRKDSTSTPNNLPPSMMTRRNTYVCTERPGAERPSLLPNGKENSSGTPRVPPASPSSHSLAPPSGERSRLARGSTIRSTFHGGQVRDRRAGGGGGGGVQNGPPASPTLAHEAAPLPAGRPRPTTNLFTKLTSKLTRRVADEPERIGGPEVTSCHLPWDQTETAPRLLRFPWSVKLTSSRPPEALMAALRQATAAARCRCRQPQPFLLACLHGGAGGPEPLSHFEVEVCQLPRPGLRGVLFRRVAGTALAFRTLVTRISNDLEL
# Chain of UniProt Q9H1R3 (whole entry, looked up): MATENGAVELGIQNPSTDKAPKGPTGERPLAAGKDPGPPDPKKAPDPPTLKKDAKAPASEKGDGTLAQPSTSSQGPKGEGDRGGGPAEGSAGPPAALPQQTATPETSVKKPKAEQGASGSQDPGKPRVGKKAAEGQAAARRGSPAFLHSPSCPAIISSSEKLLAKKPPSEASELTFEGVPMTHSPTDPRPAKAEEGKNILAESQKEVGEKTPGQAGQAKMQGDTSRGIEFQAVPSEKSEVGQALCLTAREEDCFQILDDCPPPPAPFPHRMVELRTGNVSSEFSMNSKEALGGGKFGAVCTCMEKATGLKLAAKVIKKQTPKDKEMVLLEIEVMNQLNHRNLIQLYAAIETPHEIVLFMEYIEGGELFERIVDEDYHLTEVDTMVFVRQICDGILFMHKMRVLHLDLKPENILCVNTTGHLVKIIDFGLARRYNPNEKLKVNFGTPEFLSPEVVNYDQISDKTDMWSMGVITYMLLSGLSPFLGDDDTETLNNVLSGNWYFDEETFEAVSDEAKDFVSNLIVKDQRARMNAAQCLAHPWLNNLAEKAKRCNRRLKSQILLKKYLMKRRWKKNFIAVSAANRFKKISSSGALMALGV

# Series 1 — method: phase 2a trial; host: idiopathic pulmonary fibrosis patients
# Compound: CC(C)n1cnc(-c2ccc(F)cc2)c1-c1ncc(C(=O)Nc2ccc(N3CCN(C)CC3)cc2)[nH]1
dose,setting,patients with gastrointestinal disorders [%]
60 mg once daily,adverse event grade 4,0
60 mg once daily,adverse event grade 3,0
30 mg once daily,adverse event grade 5,0
30 mg once daily,adverse event grade 1,2
60 mg once daily,adverse event grade 2,2
dose not given,"adverse event grade 5, all dose arms pooled",0
30 mg once daily,adverse event grade 2,2
60 mg once daily,adverse event grade 1,4
dose not given,"adverse event grade 4, all dose arms pooled",0
30 mg once daily,adverse event grade 3,0

# Series 2 — effect on: enzyme activity; mode: inhibitor; concentration: 0.5 µM; relative to: control
# Target: Activin receptor type-1 (ACVR1, Homo sapiens, UniProt Q04771)
# Residues (Q04771 1-509): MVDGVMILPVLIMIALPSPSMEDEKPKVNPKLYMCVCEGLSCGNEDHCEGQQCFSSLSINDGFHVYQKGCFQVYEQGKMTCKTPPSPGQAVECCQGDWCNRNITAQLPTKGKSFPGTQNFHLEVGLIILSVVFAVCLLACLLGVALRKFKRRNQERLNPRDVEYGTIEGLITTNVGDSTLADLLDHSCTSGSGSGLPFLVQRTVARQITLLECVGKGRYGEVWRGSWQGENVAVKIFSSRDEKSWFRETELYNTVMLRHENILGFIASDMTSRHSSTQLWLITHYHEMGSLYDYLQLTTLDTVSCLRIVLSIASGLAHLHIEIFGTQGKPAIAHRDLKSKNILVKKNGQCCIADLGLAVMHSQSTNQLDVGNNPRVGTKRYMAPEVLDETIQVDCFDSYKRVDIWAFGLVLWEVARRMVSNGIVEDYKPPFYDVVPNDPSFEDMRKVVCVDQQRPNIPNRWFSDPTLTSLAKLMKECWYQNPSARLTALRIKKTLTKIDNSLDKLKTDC
Compound,remaining activity
COc1cc(Nc2c(C#N)cnc3cc(OCCCN4CCN(C)CC4)c(OC)cc23)c(Cl)cc1Cl,93.3%
COc1ccc(S(=O)(=O)N(CCO)c2ccccc2CN(C)CC=Cc2ccc(Cl)cc2)cc1,90.6%
CCCC(=O)Oc1ccc2[nH]c(C(=O)c3cc4ccccc4[nH]3)cc2c1,100%
N#CC(=C(N)Sc1ccc(N)cc1)c1ccccc1C(F)(F)F,101%
NC(=O)c1ccc(N(C(N)=O)c2c(F)cccc2F)nc1-c1ccc(F)cc1F,105%
Nc1ncnc2c1cnn2-c1ccccc1,101%
Cc1cc(Nc2nc(-c3ccccc3)nc3ccccc23)n[nH]1,149%
CC#CC(=O)Nc1cc2c(Nc3ccc(F)c(Cl)c3)ncnc2cn1,105%
O=C1Cc2c([nH]c3ccc([N+](=O)[O-])cc23)-c2ccccc2N1,79.7%
CCc1[nH]c(-c2ccc(OC)cc2)nc1-c1ccncc1,95.8%
CC(C)(C)n1nc(Cc2cccc3ccccc23)c2c(N)ncnc21,106%

# Series 3 — mode: degrader; method: HiBiT kinetics; cell line: HEK293
# SMILES: O=C1CCC(N2Cc3cc(C4CCN(Cc5ccccc5)CC4)ccc3C2=O)C(=O)N1 (stereo not drawn)
# Target: CRBN/Zinc finger protein Helios (Homo sapiens, UniProt Q96SW2+Q9UKS7)
# Chain of UniProt Q9UKS7 (whole entry, looked up): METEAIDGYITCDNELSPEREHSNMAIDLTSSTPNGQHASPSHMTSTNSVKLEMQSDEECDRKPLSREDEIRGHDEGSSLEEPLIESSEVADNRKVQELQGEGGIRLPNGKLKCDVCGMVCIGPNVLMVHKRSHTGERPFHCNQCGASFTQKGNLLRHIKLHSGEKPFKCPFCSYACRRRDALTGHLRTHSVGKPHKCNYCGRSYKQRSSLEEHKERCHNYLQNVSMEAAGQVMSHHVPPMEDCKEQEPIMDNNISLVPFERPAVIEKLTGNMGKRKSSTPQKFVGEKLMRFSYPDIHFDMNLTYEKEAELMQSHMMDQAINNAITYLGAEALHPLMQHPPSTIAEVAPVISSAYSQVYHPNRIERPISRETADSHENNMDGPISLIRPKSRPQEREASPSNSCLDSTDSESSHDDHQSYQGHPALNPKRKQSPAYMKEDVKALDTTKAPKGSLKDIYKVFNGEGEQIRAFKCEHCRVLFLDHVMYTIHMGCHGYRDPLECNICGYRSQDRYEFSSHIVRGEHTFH
# Chain of UniProt Q96SW2 (whole entry, looked up): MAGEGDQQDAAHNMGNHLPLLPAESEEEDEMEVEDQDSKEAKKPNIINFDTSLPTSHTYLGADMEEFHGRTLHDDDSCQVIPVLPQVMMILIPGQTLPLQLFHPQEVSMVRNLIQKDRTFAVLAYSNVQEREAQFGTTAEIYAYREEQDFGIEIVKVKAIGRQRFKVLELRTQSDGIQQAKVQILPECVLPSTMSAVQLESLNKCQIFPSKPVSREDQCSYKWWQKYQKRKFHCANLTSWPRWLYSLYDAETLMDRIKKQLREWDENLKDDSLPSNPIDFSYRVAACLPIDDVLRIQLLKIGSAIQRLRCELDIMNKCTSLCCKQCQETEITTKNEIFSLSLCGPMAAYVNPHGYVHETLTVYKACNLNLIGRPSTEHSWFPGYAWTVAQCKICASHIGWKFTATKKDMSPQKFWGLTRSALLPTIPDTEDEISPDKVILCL
concentration,time,protein remaining [%]
0.1524 nM,0.5 h,101
0.01694 nM,3 h,108
1000 nM,6 h,19.4
0.01694 nM,1 h,94.2
1000 nM,3 h,31.1
1000 nM,0.5 h,85.8
37.04 nM,1 h,74.3
111.1 nM,0.5 h,89

# Series 4 — effect on: cell-free assay; method: competition with immobilised ligand; concentration: 1 µM
# SMILES: O=C(NS(=O)(=O)c1ccc(NCC2CCOCC2)c([N+](=O)[O-])c1)c1ccc(N2CCN(Cc3ccc(C(F)(F)F)cc3-c3ccc(Cl)cc3)CC2)cc1Oc1cnc2[nH]ccc2c1
target,remaining binding [%]
"CDK17 (Homo sapiens, UniProt Q00537)",100
"CSNK1D (Homo sapiens, UniProt P48730)",80
"FLT3 (Homo sapiens, UniProt P36888, D835H)",100
"EPHA8 (Homo sapiens, UniProt P29322)",84
"STK10 (Homo sapiens, UniProt O94804)",100
"MKNK2 (Homo sapiens, UniProt Q9HBH9)",83
"MELK (Homo sapiens, UniProt Q14680)",73
"MYLK4 (Homo sapiens, UniProt Q86YV6)",100
"MARK4 (Homo sapiens, UniProt Q96L34)",85
"SIK2 (Homo sapiens, UniProt Q9H0K1)",100
"BMPR1B (Homo sapiens, UniProt O00238)",89
"MYLK2 (Homo sapiens, UniProt Q9H1R3)",77
"STK36 (Homo sapiens, UniProt Q9NRP7)",88
"SBK1 (Homo sapiens, UniProt Q52WX2)",100
"GSK3B (Homo sapiens, UniProt P49841)",100
"EGFR (Homo sapiens, UniProt P00533, T790M)",98
